{"data": "Measured values collected from several papers", "note": "Protocols differ between the studies behind these lines. ± marks the error that the study gave."}
{"Compound": "[Ga+3].[O-]c1ccc(Br)c2cccnc12.[O-]c1ccc(Br)c2cccnc12.[O-]c1ccc(Br)c2cccnc12", "system": "oil/water", "setting": "pH 5.4", "measurement": "log P", "result": 1.45}
{"Compound": "CC[C@H](C)[C@H](NC(=O)[C@H](CCCCN)NC(=O)CNC(=O)[C@H](CC(C)C)NC(=O)[C@H](Cc1ccccc1)NC(=O)[C@H](CCCCN)NC(=O)[C@H](CO)NC(=O)[C@H](Cc1ccccc1)NC(=O)[C@H](Cc1c[nH]c2ccccc12)NC(=O)[C@H](CCC(N)=O)NC(=O)[C@@H](NC(=O)[C@H](Cc1ccccc1)NC(=O)CCCCCNC(=O)CN1CCN(CC(=O)O)CCN(CC(=O)O)CCN(CC(=O)O)CC1)C(C)C)C(=O)N[C@@H](CCC(=O)O)C(=O)N1CCC[C@H]1C(=O)N[C@@H](CC(=O)O)C(=O)N[C@H](C(=O)N[C@@H](CO)C(=O)N[C@@H](CCC(N)=O)C(=O)N[C@H](C(=O)N[C@@H](CCC(N)=O)C(=O)N[C@@H](CC(=O)O)C(=O)N1CCC[C@H]1C(=O)N[C@@H](CC(N)=O)C(=O)N[C@@H](CC(=O)O)C(=O)N[C@@H](CCC(N)=O)C(=O)N[C@@H](Cc1ccc(O)cc1)C(=O)N[C@@H](CCC(=O)O)C(=O)N1CCC[C@H]1C(=O)N[C@@H](Cc1ccccc1)C(=O)O)C(C)C)C(C)C [copper-64 labelled]", "system": "C57BL/6 mice, spleen", "setting": "with: LPS 0.1 mg/kg intratracheal", "measurement": "tissue uptake", "result": "0.76 ± 0.1 %ID/g"}
{"Compound": "C#Cc1c(F)ccc2cc(O)cc(-c3ncc4c(N5CC6CCC(C5)N6C(=O)OC(OC(=O)CCC)C5CCC5)nc(OC[C@@]56CCCN5C[C@H](F)C6)nc4c3F)c12 (stereo partly drawn)", "test": "refers to: prodrug", "system": "mouse whole blood", "setting": "1 µM", "measurement": "t1/2", "result": "53.4 s"}
{"Compound": "CN1Cc2cc(Cl)ccc2-n2c(nnc2C2CCN(c3cccc(F)n3)CC2)C1", "test": "mass spectrometry", "system": "male Sprague-Dawley rat, brain", "setting": "intravenous, 0.03 mg/kg, 30 min, single dose", "measurement": "concentration", "result": "2.67 ng/mL"}
{"Compound": "O=C(c1cc(Cc2n[nH]c(=O)c3ccccc23)ccc1F)N1CC(CNC2CC2)C1", "system": "female ICR mouse, plasma", "setting": "oral, 60 mg/kg", "measurement": "AUC(0-inf)", "result": "6420 ng·h/mL"}
{"Compound": "CCCCCCCCCCCCCCCC(=O)N[C@@H](CCC(=O)NCCOCCOCCC(=O)NCCOCCOCCC(=O)NCCCC[C@H](NC(=O)[C@H](CC(=O)O)NC(=O)[C@H](CC(C)C)NC(=O)[C@H](Cc1ccc(O)cc1)NC(=O)[C@H](CCCCN)NC(=O)[C@H](CO)NC(=O)[C@H](Cc1ccc(O)cc1)NC(=O)[C@H](CC(=O)O)NC(=O)[C@H](CO)NC(=O)[C@@H](NC(=O)[C@H](Cc1ccccc1)NC(=O)[C@@H](NC(=O)CNC(=O)[C@H](CCC(N)=O)NC(=O)[C@@H](CO)NC(=O)[C@@H](N)Cc1c[nH]cn1)[C@@H](C)O)[C@@H](C)O)C(=O)N[C@@H](CCCNC(=N)N)C(=O)N[C@@H](CCCNC(=N)N)C(=O)N[C@@H](C)C(=O)N[C@@H](CCC(N)=O)C(=O)N[C@@H](CC(=O)O)C(=O)N[C@@H](Cc1ccccc1)C(=O)N[C@H](C(=O)N[C@@H](CCC(N)=O)C(=O)N[C@@H](Cc1c[nH]c2ccccc12)C(=O)N[C@@H](CC(C)C)C(=O)N[C@@H](CC(C)C)C(=O)N[C@@H](CC(N)=O)C(=O)N[C@H](C(=O)NCC(=O)NCC(=O)N1CCC[C@H]1C(=O)N[C@@H](CO)C(=O)N[C@@H](CO)C(=O)NCC(=O)N[C@@H](C)C(=O)N1CCC[C@H]1C(=O)N1CCC[C@H]1C(=O)N1CCC[C@H]1C(=O)N[C@@H](CO)C(N)=O)[C@@H](C)O)C(C)C)C(=O)O", "system": "rhesus monkey, female, plasma", "setting": "subcutaneous, 300 µg/kg, day 1, toxicokinetics, mean", "measurement": "AUC(0-t)", "result": "4440 ng·h/mL"}
{"Compound": "CCn1ccc(-c2cc(-c3cnn(C)c3)cc([C@@H](C)NC(=O)c3cc(OCCN(C)C)ccc3C)c2)n1", "system": "mouse C57BL/6J, male, plasma", "setting": "oral, 50 mg/kg", "measurement": "AUC extrapolated percentage", "result": "0.0336%"}
{"Compound": "CCCCC[C@@H]1NC(=O)[C@@H](C)N(C)C(=O)[C@H](CCCCC)N(C)C(=O)[C@@H](C)N(C)C(=O)[C@H](CCCCC)N(C)C(=O)[C@@H](C)N(C)C(=O)[C@H](CCCCC)NC(=O)[C@@H](C)N(C)C1=O", "test": "PAMPA, HPLC-UV", "setting": "500 µM, pH 7.4", "measurement": "log Papp", "result": "-5.42 ± 0.04"}
{"Compound": "N#[11C]c1ccc(-c2csc(NN=C3CCCC3)n2)cc1", "system": "C57BL/6 mice, male, brain", "setting": "intravenous, 3 MBq, 30 min", "measurement": "radioactivity uptake", "result": "0.61 ± 0.05 %ID/g"}
{"Compound": "Cc1ccccc1-c1ccc(-c2nc(-c3ccc(CN(C)CCCC(=O)O)c([18F])c3)no2)cc1C(F)(F)F", "system": "rat, spleen", "setting": "1 h", "measurement": "tracer uptake", "result": "0.3 %ID/g"}
{"Compound": "C[C@H](NCc1ccc(-c2ccc(C(F)(F)F)cc2)cc1)C(N)=O", "system": "Sprague-Dawley rat, brain", "setting": "oral, 10 mg/kg, 2 h", "measurement": "concentration", "result": "6720 ng/g"}
{"Compound": "COc1ccc([C@@H]2CC(=O)c3c(O)cc(O[C@@H]4O[C@H](CO)[C@@H](O)[C@H](O)[C@H]4O[C@@H]4O[C@@H](C)[C@H](O)[C@@H](O)[C@H]4O)cc3O2)cc1O", "system": "male Sprague-Dawley rats, obese, urine", "setting": "oral, 100 mg/kg, 48 h", "scale": "reference: oral dose", "measurement": "urinary recovery", "result": "0.0034 ± 0.001%"}
{"Compound": "CC(C)[C@H](NC(=O)[C@@H](NC(=O)[C@H](CCCNC(=N)N)NC(=O)[C@H](CCCNC(=N)N)NC(=O)[C@H](CCCNC(=N)N)NC(=O)[C@H](CCC(N)=O)NC(=O)[C@H](CCCNC(=N)N)NC(=O)[C@H](CCCNC(=N)N)NC(=O)[C@H](CCCCN)NC(=O)[C@H](CCCCN)NC(=O)[C@H](CCCNC(=N)N)NC(=O)CN)[C@@H](C)O)C(=O)N[C@H](C(=O)N[C@@H](CO)C(=O)N1CCC[C@H]1C(=O)O)[C@@H](C)O", "system": "ICR mice, female, heart", "setting": "intranasal, 5 mg/kg daily, 4 weeks", "measurement": "organ weight", "result": "0.168 ± 0.049 g"}
{"Compound": "O=C1NC2(CC2)COc2ncc(F)cc2[C@H]2COCCN2c2ccn3ncc1c3n2", "system": "Sprague-Dawley rats, female, blood", "setting": "oral, 10 mg/kg/day, end of treatment, 4-week subacute toxicity", "measurement": "eosinophil percentage", "result": "1.24 ± 0.47%"}
{"Compound": "c1ccc(CN2CCCNCCNCCCNCC2)cc1", "test": "potentiometry", "system": "aqueous 1.0 M KCl", "setting": "25 °C, L + H+ to HL", "measurement": "log overall protonation constant", "result": 11.3}
{"Compound": "CC(CCC(=O)NCC(=O)O)C1CCC2C3CCC4CC(OC5OC(C(=O)O)C(O)C(O)C5O)CCC4(C)C3CC(O)C12C (stereo not drawn)", "system": "human men", "setting": "dose not given, SLCO1B1 *5/*14", "measurement": "plasma concentration", "result": "148 ng/mL"}
{"Compound": "C[C@H](O)[C@@H](NC(=O)[C@H]1CCCN1C(=O)[C@@H](CCCCN)NC(=O)[C@@H](CO)NC(=O)[C@@H](Cc1ccc(O)cc1)NC(=O)[C@@H](CC(N)=O)NC(=O)CCOCCOCCOCCNC(=O)CN1CCN(CC(=O)O)CCN(CC(=O)O)CCN(CC(=O)O)CC1)C(=O)N[C@H](CC(=O)O)C(=O)N[C@H](CCCNC(=N)N)C(=O)N[C@H](CCC(N)=O)C(=O)N[C@H](Cc1ccc(O)cc1)C(=O)N[C@H](Cc1c[nH]cn1)C(=O)N[C@H](Cc1ccccc1)C(N)=O [copper-64 labelled]", "test": "ex vivo gamma counting", "system": "C57BL/6J mouse, normal, small intestine", "setting": "intravenous, 1.85 MBq, 80 min", "measurement": "tissue uptake", "result": "0.82 ± 0.1 %ID/g"}
{"Compound": "CSCC[C@H](N)C(=O)N[C@@H](C)C(=O)N[C@@H](CCCNC(=N)N)C(=O)N[C@@H](CCCNC(=N)N)C(=O)N[C@@H](CC(=O)O)C(=O)N[C@@H](CCCCN)C(=O)N[C@H](C(=O)N[C@@H](CC(=O)O)C(=O)N[C@@H](Cc1ccccc1)C(=O)N[C@@H](C)C(=O)N[C@@H](CCCNC(=N)N)C(=O)N[C@@H](CCCNC(=N)N)C(=O)N[C@@H](CCCNC(=N)N)C(=O)N[C@@H](CCCNC(=N)N)C(=O)NCCCCCC(=O)NCCCCC(NC(=O)CCCCCNC(=O)[C@H](CCCNC(=N)N)NC(=O)[C@H](CCCNC(=N)N)NC(=O)[C@H](CCCNC(=N)N)NC(=O)[C@H](CCCNC(=N)N)NC(=O)[C@H](C)NC(=O)[C@H](Cc1ccccc1)NC(=O)[C@H](CC(=O)O)NC(=O)[C@@H](NC(=O)[C@H](CCCCN)NC(=O)[C@H](CC(=O)O)NC(=O)[C@H](CCCNC(=N)N)NC(=O)[C@H](CCCNC(=N)N)NC(=O)[C@H](C)NC(=O)[C@@H](N)CCSC)[C@@H](C)O)C(=O)NCCCCC(NC(=O)C(CCCCNC(=O)CCCCCNC(=O)[C@H](CCCNC(=N)N)NC(=O)[C@H](CCCNC(=N)N)NC(=O)[C@H](CCCNC(=N)N)NC(=O)[C@H](CCCNC(=N)N)NC(=O)[C@H](C)NC(=O)[C@H](Cc1ccccc1)NC(=O)[C@H](CC(=O)O)NC(=O)[C@@H](NC(=O)[C@H](CCCCN)NC(=O)[C@H](CC(=O)O)NC(=O)[C@H](CCCNC(=N)N)NC(=O)[C@H](CCCNC(=N)N)NC(=O)[C@H](C)NC(=O)[C@@H](N)CCSC)[C@@H](C)O)NC(=O)CCCCCNC(=O)[C@H](CCCNC(=N)N)NC(=O)[C@H](CCCNC(=N)N)NC(=O)[C@H](CCCNC(=N)N)NC(=O)[C@H](CCCNC(=N)N)NC(=O)[C@H](C)NC(=O)[C@H](Cc1ccccc1)NC(=O)[C@H](CC(=O)O)NC(=O)[C@@H](NC(=O)[C@H](CCCCN)NC(=O)[C@H](CC(=O)O)NC(=O)[C@H](CCCNC(=N)N)NC(=O)[C@H](CCCNC(=N)N)NC(=O)[C@H](C)NC(=O)[C@@H](N)CCSC)[C@@H](C)O)C(N)=O)[C@@H](C)O (stereo partly drawn)", "system": "C57BL/6 mouse female, brain", "setting": "dose not given, 3 h", "scale": "reference: total", "measurement": "mean tissue distribution", "result": "0.28%"}
{"note": "Repeated from above:"}
{"Compound": "CCCCC[C@@H]1NC(=O)[C@@H](C)N(C)C(=O)[C@H](CCCCC)N(C)C(=O)[C@@H](C)N(C)C(=O)[C@H](CCCCC)N(C)C(=O)[C@@H](C)N(C)C(=O)[C@H](CCCCC)NC(=O)[C@@H](C)N(C)C1=O", "test": "PAMPA, HPLC-UV", "setting": "500 µM, pH 7.4", "measurement": "log Papp", "result": "-5.42 ± 0.04"}
